# Published values collected from several papers.
# Parts stem from different laboratories: compare values within a part only. Changes are numbered by the printed parent chain.
# UniProt P06493, sequence (whole entry, looked up): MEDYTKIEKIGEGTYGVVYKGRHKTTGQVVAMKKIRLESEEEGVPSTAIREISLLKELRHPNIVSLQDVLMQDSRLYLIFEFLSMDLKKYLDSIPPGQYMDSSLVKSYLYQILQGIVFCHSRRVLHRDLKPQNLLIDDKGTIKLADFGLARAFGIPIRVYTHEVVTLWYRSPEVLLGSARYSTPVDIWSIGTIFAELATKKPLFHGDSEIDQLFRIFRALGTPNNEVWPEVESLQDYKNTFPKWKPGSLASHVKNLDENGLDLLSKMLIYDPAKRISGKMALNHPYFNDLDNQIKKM

# Study 1 — target: CCNB2, cyclin fold, Cln2 fusion (human); technique: yeast growth competition, sequencing; sample: yeast; setting: weak parent motif; baseline: not given; direction: higher = stronger binding; starting sequence: viral docking peptide; CKVKRKLFGSENI
Change,normalised enrichment score
N12A,0.661
G9A,0.529
L7A,0.604
K6A,0.706
R5K F8L,0.382
R5K,-0.724
F8A,0.464
K4A,0.875
K2A,0.621
R5A L7A,0.455

# Study 2 — technique: RNA Bind-n-Seq; molecule type: RNA; sample: in vitro; tested at: 1 µM; setting: whole 134-nt RNA, ends assumed; together with: 150 mM KCl; baseline: input library; direction: higher = stronger binding
# Target: Ras GTPase-activating protein-binding protein 1, RRM domain (G3BP1, Homo sapiens, UniProt Q13283)
# UniProt Q13283, sequence (whole entry, looked up): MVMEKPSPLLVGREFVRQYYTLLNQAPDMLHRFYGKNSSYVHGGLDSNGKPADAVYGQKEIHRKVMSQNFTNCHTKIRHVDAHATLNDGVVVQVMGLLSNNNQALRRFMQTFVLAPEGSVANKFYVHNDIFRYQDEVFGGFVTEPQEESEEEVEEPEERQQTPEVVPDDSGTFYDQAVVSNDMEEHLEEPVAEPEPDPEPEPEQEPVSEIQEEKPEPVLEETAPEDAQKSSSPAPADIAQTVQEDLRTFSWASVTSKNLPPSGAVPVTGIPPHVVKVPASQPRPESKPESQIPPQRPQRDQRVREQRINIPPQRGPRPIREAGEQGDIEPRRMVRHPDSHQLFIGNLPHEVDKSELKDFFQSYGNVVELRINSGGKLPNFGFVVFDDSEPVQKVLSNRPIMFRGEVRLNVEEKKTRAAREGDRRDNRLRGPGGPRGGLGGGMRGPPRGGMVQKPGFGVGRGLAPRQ
# Shared flanks, not repeated: GGGAGUUCUACAGUCCGACGAUC … UGGAAUUCUCGGGUGUCAAGG
Strand,log2 enrichment
UGUGCUACACAUCGUAUGUACCGAAUCGGGAAAAAAAGGGGAAAAAAAGGGGAAAAAAAGGGAAAGUAUUAUGUUACGCCGUUCGGAUCU,0.134
CCUCAAGUCCUGUGCUACACAUCGUAUGUACCGAAUCGGUGGAGGUUUUUGGAAAGUAUUAUGUUACGCCGUUCGGAUCUGCACUUCCAG,-0.19
CUGUGCUACACAUCGUAUGUACCGAAUCGGGUUUUUUUGGUUUUUUUGGGGUUUUUUUGGGGAAAGUAUUAUGUUACGCCGUUCGGAUCU,-0.245
ACCAUGCAGGUGGGCAUCUUUGGGAAGUGGGGCAAGGGGGGGAUAGGGAGGGGGGUAACACUUUGGGAACAGGUGGUCCCCGGUCGUUUC,0.511
UAACUUUAGAGGAGGAUCUGAUGGAUAUGGCAGUGGACGUGGAUUUGGGGAUGGCUAUAAUGGGUAUGGAGGAGGACCUGGAGGUCGCAA,-0.42
GAAGGAAGUAAAAACAAAUGGAAAUGCUUCGGAUAGUGGCAGGGGUGGGGGUUGCUAAGGAAAGGGUGGGAUGGGAGUGGGUAAAGAGUU,1.22
ACCAUGCAGGUGGGCACCUUUGGGAAGUGGGGCAAGGGGGGGAUAGGGAGGGGGGUAACACUUUGGGAACAGGUGGUCCCAGGUCGUUUC,-0.459
CCUCAAGUCCUGUGCUACACAUCGUAUGUACCGAAUCGGUUGGGUUGGGUUGGAAAGUAUUAUGUUACGCCGUUCGGAUCUGCACUUCCA,-0.265

# Study 3 — technique: protein binding microarray; molecule type: double-stranded DNA, one strand shown; sample: in vitro; tested at: not given; baseline: not given; direction: higher = stronger binding
# Target: Histone acetyltransferase KAT6A, both winged helices, GST fusion (KAT6A, Homo sapiens, UniProt Q92794, residues 1-181)
# Setting: 8-mer, flanks averaged, mean of 2 arrays, mostly near background
# Residues (chain): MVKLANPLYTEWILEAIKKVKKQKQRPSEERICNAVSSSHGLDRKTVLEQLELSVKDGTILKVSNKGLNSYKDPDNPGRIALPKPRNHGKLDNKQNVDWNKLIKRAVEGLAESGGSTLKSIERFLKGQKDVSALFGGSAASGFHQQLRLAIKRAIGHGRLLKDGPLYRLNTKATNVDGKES
Strand,E-score
ACGTGAGG,-0.0865
GTGCAGCA,-0.000955
CATAGTCG,0.0951
TACCAGCA,-0.142
AGGCCCCG,0.0502
ACTGTGAT,-0.113
TCCTCCGA,-0.0716
ATTCCCAA,-0.287

# Further values, each from its own experiment
Compound,target,test,setting,how to read,endpoint,value
COc1ccc2c(c1)/C(=C/c1cnc[nH]1)C(=O)N2,"Cyclin-dependent kinase 1, with cyclin B (CDK1, Homo sapiens, UniProt P06493)","enzyme activity, inhibitor",0.5 µM,baseline: control,remaining activity,35.9%
